Measured values of several laboratories.
Compare with care: the assays were run in different laboratories.
B1: Spt6 1-335 (Saccharomyces cerevisiae, UniProt P23615); sequence looked up; chain MEETGDSKLVPRDEEEIVNDNDETKAPSEEEEGEDVFDSSEEDEDIDEDEDEARKVQEGFIVNDDDENEDPGTSISKKRRKHKRREREEDDRLSEDDLDLLMENAGVERTKASSSSGKFKRLKRVGDEGNAAESESDNVAASRQDSTSKLEDFFSEDEEEEESGLRNGRNNEYGRDEEDHENRNRTADKGGILDELDDFIEDDEFSDEDDETRQRRIQEKKLLREQSIKQPTQITGLSSDKIDEMYDIFGDGHDYDWALEIENEELENGNDNNEAEEEEIDEETGAIKSTKKKISLQDIYDLEDLKKNLMTEGDMKIRKTDIPERYQELRAGITD
B2: TFC1 1-649 (Saccharomyces cerevisiae, UniProt P32367); chain MPVEEPLATLSSIPDSSADQAPPLIADEFTLDLPRIPSLELPLNVSTKHSSIQKAIKMCGGIEKVKEAFKEHGPIESQHGLQLYLNDDTDSDGSKSYFNEHPVIGKRVPFRDESVILKVTMPKGTLSKNNNSVKDSIKSLKDSNKLRVTPVSIVDNTIKFREMSDFQIKLDNVPSAREFKSSFGSLEWNNFKSFVNSVPDNDSQPQENIGNLILDRSVKIPSTDFQLPPPPKLSMVGFPLLYKYKANPFAKKKKNGVTEVKGTYIKNYQLFVHDLSDKTVIPSQAHEQVLYDFEVAKKTKVYPGTKSDSKFYESLEECLKILRELFARRPIWVKRHLDGIVPKKIHHTMKIALALISYRFTMGPWRNTYIKFGIDPRSSVEYAQYQTEYFKIERKLLSSPIVKKNVPKPPPLVFESDTPGGIDSRFKFDGKRIPWYLMLQIDLLIGEPNIAEVFHNVEYLDKANELTGWFKELDLVKIRRIVKYELGCMVQGNYEYNKYKLKYFKTMLFVKESMVPENKNSEEGMGVNTNKDADGDINMDAGSQMSSNAIEEDKGIAAGDDFDDNGAITEEPDDAALENEEMDTDQNLKVPASIDDDVDDVDADEEEQESFDVKTASFQDIINKIAKLDPKTAETMKSELKGFVDEVDL
B3: INF2 941-1249 (Homo sapiens, UniProt Q27J81-1); FITC label; sequence looked up; chain KQQLAEEEARRPRGEDGKPVRKGPGKQEEVCVIDALLADIRKGFQLRKTARGRGDTDGGSKAASMDPPRATEPVATSNPAGDPVGSTRCPASEPGLDATTASESRGWDLVDAVTPGPQPTLEQLEEGGPRPLERRSSWYVDASDVLTTEDPQCPQPLEGAWPVTLGDAQALKPLKFSSNQPPAAGSSRQDAKDPTSLLGVLQAEADSTSEGLEDAVHSRGARPPAAGPGGDEDEDEEDTAPESALDTSLDKSFSEDAVTDSSGSGTLPRARGRASKGTGKRRKKRPSRSQEEVPPDSDDNKTKKLCVIQ
B4: CCDC32 1-100 (Mus musculus, UniProt Q8BS39); chain MKMFESLDSSATKSGRDLWAEICSCLPSPAQEDVSDNAFSDSFMDSHPAGESHTAAADSAVQPAGKPWAPLHDSEVYLASLEKKLRRIKGLNEEVTSKDM
B5: HDAC2 1-322 (Homo sapiens, UniProt Q92769); sequence looked up; chain MAYSQGGGKKKVCYYYDGDIGNYYYGQGHPMKPHRIRMTHNLLLNYGLYRKMEIYRPHKATAEEMTKYHSDEYIKFLRSIRPDNMSEYSKQMQRFNVGEDCPVFDGLFEFCQLSTGGSVAGAVKLNRQQTDMAVNWAGGLHHAKKSEASGFCYVNDIVLAILELLKYHQRVLYIDIDIHHGDGVEEAFYTTDRVMTVSFHKYGEYFPGTGDLRDIGAGKGKYYAVNFPMRDGIDDESYGQIFKPIISKVMEMYQPSAVVLQCGADSLSGDRLGCFNLTVKGHAKCVEVVKTFNLPLLMLGGGGYTIRNVARCWTYETAVALD
B6: HUS1 (Homo sapiens, UniProt O60921); sequence looked up; chain MKFRAKIVDGACLNHFTRISNMIAKLAKTCTLRISPDKLNFILCDKLANGGVSMWCELEQENFFNEFQMEGVSAENNEIYLELTSENLSRALKTAQNARALKIKLTNKHFPCLTVSVELLSMSSSSRIVTHDIPIKVIPRKLWKDLQEPVVPDPDVSIYLPVLKTMKSVVEKMKNISNHLVIEANLDGELNLKIETELVCVTTHFKDLGNPPLASESTHEDRNVEHMAEVHIDIRKLLQFLAGQQVNPTKALCNIVNNKMVHFDLLHEDVSLQYFIPALS
B7: DDC1/MEC3/RAD17 1-612 (Saccharomyces cerevisiae); chain 1 MSFKATITESGKQNIWFRAIYVLSTIQDDIKITVTTNELIAWSMNETDTTLCQVRFQKSFFEEYEFKPHEIVFGENGVQVIEDTYGNSHKLYSFRVNGRHLTTISRKPDGDGIKSFTIAVNNTSTCPESLANRLIVVIEMDSLIVKEYCPQFQPIKYDPIIINLKYKRRFLDVFGTAASDRNPQEPLDPKLLDVFTNTERELTSALFNEEVESDIRKRNQLTAADEINYICCNSTLLKNFLDNCNVNVTDEVKLEINVHRLSITAFTKAVYGKNNDLLRNALSMSNTISTLDLEHYCLFTTIEDEKQDKRSHSKRREHMKSIIFKLKDFKNFITIGPSWKTTQDGNDNISLWFCHPGDPILMQMQKPGVKLELVEVTDSNINDDILEGKFIKTAISGSKEEAGLKDNKESCESPLKSKTALKRENLPHSVAGTRNSPLKVSYLTPDNGSTVAKTYRNNTARKLFVEEQSQSTNYEQDKRFRQASSVHMNMNREQSFDIGTTHEVACPRNESNSLKRSIADICNETEDPTQQSTFAKRADTTVTWGKALPAADDEVSCSNIDRKGMLKKEKLKHMQGLLNSQNDTSNHKKQDNKEMEDGLGLTQVEKPRGIFD; chain 2 MKLKLIVNGCEAPDDYKLLRTTINTVASLRKTAILRFNSERLTIISTPKSSLNSSNNGTILRGDTGQLWCTIPHDVFRLYTVISARELNTITMECNCDSLLSVFKRYDRVMNQGSSSNMTIKLQSMPEWNTNNGTLSGGTAGGVDTTSKPNPICALGITFEEIVHTSGPNDAIVMNGGVDEHNGLPTTVGTGNLLASNKVIMHSFKVPVKLLFRAQDTRIQEPMINYIQLMMYKLPPISGEFGSAFHGFIRRVERYSNVNHIHLMGVKKKEHGNEGDDVELKIIVNELDWHLEICWNGPLDSVIQRQEGLTDNPSQNQHIDTDGRQEEGSLPIIEADKPMSSLYTNTRDREMEENIRYDEDLLRIEDSSIADTRGNIYTADTSGDTEFNDISVMVEKAEQESSSTHEVIIRCKDWKVCSKLYAAFEEVVLAISHDESCVFHCSLDRGSLEDSEDVEKPRERGQIIYYIARSKGL; chain 3 MRINSELANKFSASTVHLEHITTALSCLTPFGSKDDVLIFIDADGLSFVRENNHVIKIQLLLSRELFMSYSYRNETEDHMKLCVKINHILDSVSVMNRNSDDIVECTLSYDGHGSPFVLIFEDSFISERVEYSTYLIKDFDTNGLELDRERISFEAIIKGEALHSALKDLKEIGCKECYVYAKTEANDENVFALISKSQLGFSKIKLPSNRSILEKLQVFDGDSTTVIDGFAVIGFFDFTSFDKIRKSTKIASKVLFRMDVHGVLSVNILSQTDDVIITDTTRPSNNRPGSIRQLQLPKDYPGIVIEVCMLEKESIDEAAQTEIELLMETNELGNRNSFKKSTIRKRYGTDKGNETSNDNLLQLNGKKIKLPSEEENNKNRESEDEENHCKYPTKDIPIFF
B8: NOTCH1 1758-1888 (Homo sapiens, UniProt P46531); sequence looked up; chain RKRRRQHGQLWFPEGFKVSEASKKKRREPLGEDSVGLKPLKNASDGALMDDNQNEWGDEDLETKKFRFEEPVVLPDLDDQTDHRQWTQQHLDAADLRMSAMAPTPPQGEVDADCMDVNVRGPDGFTPLMIA
B9: dnaC 1-245 (Escherichia coli, UniProt P0AEF0); chain MKNVGDLMQRLQKMMPAHIKPAFKTGEELLAWQKEQGAIRSAALERENRAMKMQRTFNRSGIRPLHQNCSFENYRVECEGQMNALSKARQYVEEFDGNIASFIFSGKPGTGKNHLAAAICNELLLRGKSVLIITVADIMSAMKDTFRNSGTSEEQLLNDLSNVDLLVIDEIGVQTESKYEKVIINQIVDRRSSSKRPTGMLTNSNMEEMTKLLGERVMDRMRLGNSLWVIFNWDSYRSRVTGKEY
B10: POL30 1-258 (Saccharomyces cerevisiae, UniProt P15873); chain MLEAKFEEASLFKRIIDGFKDCVQLVNFQCKEDGIIAQAVDDSRVLLVSLEIGVEAFQEYRCDHPVTLGMDLTSLSKILRCGNNTDTLTLIADNTPDSIILLFEDTKKDRIAEYSLKLMDIDADFLKIEELQYDSTLSLPSSEFSKIVRDLSQLSDSINIMITKETIKFVADGDIGSGSVIIKPFVDMEHPETSIKLEMDQPVDLTFGAKYLLDIIKGSSLSDRVGIRLSSEAPALFQFDLKSGFLQFFLAPKFNDEE
B11: Creb1 bZIP 270-341 C300S/C310S/C337S (Rattus norvegicus, UniProt P15337-1); sequence looked up; chain SSPALPTQPAEEAARKREVRLMKNREAARESRRKKKEYVKSLENRVAVLENQNKTLIEELKALKDLYSHKSD
Sequence of UniProt O95251 (whole entry, looked up): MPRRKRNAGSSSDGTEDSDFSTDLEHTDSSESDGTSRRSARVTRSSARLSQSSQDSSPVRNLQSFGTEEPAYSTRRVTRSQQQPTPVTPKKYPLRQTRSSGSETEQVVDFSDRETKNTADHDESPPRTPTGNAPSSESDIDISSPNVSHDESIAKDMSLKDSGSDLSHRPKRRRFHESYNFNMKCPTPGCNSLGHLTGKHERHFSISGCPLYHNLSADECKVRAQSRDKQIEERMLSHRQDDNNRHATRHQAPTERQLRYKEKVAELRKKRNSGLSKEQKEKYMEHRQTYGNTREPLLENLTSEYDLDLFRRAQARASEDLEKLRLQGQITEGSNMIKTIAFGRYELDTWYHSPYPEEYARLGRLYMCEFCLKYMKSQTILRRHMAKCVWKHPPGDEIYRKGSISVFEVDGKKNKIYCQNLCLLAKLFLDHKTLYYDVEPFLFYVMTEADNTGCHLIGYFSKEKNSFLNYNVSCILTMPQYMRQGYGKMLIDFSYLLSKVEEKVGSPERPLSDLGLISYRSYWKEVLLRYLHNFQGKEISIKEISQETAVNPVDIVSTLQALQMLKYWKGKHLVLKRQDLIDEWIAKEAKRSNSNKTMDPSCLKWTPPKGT
Sequence of UniProt P46100 (whole entry, looked up): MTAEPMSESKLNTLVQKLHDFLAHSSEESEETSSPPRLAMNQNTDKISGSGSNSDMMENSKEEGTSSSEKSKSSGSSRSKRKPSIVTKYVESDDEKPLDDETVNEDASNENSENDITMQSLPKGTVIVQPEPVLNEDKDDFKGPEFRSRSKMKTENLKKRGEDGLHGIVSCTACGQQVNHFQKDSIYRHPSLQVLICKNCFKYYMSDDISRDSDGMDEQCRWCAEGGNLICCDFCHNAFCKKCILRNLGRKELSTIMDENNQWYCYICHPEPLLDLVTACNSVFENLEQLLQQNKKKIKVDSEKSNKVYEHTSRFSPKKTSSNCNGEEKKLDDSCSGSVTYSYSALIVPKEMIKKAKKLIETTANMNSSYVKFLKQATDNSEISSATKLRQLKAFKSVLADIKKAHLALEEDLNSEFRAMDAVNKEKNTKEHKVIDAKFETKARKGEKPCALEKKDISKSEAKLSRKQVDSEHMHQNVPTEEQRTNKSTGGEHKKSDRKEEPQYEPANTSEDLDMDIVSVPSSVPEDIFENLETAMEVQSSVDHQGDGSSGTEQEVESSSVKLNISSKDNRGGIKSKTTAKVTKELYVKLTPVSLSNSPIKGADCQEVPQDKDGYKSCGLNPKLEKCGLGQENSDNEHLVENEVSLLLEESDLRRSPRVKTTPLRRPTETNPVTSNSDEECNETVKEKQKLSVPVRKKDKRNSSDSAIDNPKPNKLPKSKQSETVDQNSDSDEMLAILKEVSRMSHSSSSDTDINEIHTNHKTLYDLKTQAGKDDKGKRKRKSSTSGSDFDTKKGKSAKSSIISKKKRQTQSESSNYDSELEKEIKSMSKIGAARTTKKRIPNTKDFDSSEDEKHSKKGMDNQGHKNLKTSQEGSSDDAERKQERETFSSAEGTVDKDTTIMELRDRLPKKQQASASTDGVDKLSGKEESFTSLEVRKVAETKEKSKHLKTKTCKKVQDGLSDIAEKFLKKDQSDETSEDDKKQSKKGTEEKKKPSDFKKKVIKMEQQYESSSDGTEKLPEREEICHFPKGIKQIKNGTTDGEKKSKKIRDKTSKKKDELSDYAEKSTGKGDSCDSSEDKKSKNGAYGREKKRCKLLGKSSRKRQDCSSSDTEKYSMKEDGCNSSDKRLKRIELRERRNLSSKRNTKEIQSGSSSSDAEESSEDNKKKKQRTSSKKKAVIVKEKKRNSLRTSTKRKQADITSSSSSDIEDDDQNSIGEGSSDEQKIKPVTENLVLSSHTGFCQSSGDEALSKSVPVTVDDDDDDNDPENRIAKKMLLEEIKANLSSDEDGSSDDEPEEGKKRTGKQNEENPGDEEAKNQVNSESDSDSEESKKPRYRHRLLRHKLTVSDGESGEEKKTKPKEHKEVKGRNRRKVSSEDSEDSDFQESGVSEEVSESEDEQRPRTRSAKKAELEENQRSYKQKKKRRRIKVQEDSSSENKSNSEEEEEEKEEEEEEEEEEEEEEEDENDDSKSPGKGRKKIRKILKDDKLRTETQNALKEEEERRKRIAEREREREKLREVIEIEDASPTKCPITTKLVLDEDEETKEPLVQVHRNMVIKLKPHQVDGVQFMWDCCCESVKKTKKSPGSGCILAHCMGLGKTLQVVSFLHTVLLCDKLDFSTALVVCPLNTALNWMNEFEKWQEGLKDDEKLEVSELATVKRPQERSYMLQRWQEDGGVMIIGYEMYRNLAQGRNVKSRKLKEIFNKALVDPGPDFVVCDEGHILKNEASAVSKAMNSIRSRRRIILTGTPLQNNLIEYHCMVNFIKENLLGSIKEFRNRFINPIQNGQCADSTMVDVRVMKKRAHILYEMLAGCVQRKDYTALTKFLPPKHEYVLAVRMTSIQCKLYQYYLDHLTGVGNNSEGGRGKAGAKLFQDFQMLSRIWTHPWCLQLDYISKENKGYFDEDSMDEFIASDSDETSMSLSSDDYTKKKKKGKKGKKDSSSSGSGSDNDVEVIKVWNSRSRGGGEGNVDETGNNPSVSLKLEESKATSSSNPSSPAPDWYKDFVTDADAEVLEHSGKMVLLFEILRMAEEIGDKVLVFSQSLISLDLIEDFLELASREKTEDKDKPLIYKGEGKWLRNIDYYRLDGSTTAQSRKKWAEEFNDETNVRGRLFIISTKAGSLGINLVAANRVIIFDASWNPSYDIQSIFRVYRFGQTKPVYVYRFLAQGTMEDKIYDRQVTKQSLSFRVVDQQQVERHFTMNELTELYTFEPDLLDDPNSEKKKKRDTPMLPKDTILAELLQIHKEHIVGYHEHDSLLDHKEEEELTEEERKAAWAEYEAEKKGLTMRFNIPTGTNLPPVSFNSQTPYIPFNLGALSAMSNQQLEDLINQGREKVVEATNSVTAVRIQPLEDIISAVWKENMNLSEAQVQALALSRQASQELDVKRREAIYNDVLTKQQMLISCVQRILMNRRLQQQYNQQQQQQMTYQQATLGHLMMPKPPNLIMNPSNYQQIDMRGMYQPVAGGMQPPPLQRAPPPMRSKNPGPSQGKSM
Sequence of UniProt P33339 (whole entry, looked up): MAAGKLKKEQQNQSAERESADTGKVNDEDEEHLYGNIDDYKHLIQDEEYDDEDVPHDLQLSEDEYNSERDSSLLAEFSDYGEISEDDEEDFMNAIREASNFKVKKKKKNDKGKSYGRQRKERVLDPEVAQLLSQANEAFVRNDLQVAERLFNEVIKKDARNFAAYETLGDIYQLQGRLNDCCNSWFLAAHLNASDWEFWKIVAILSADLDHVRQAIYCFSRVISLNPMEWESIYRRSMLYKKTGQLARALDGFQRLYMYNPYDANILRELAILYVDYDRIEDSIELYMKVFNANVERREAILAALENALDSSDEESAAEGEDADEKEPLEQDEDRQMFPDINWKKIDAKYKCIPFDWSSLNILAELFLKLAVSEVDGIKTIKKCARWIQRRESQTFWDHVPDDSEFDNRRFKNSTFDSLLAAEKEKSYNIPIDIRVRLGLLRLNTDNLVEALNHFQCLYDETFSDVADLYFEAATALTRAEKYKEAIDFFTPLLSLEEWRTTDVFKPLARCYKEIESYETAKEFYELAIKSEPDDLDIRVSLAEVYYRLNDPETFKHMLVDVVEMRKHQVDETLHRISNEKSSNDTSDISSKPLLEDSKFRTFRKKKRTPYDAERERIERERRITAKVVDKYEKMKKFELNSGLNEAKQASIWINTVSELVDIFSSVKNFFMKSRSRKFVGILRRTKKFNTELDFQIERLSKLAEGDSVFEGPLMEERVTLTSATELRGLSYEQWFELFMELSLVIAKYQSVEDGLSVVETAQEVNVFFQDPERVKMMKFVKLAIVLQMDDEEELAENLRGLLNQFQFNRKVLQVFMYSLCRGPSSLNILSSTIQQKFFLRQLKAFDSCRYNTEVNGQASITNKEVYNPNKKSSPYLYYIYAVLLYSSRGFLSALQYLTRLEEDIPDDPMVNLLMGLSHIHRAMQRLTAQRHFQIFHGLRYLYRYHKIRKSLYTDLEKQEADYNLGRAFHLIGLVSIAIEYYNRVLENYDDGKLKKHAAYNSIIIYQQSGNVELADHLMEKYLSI
Sequence of UniProt P35226 (whole entry, looked up): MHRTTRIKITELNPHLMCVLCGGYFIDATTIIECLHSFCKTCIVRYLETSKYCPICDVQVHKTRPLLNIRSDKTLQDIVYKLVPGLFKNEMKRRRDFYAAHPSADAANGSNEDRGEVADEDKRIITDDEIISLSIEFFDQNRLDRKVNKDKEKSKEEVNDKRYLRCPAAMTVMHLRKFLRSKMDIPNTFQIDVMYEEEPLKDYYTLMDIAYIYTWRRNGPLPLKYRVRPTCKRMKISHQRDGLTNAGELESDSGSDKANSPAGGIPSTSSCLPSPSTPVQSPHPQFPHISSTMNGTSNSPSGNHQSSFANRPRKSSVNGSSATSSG
Sequence of UniProt P40339 (whole entry, looked up): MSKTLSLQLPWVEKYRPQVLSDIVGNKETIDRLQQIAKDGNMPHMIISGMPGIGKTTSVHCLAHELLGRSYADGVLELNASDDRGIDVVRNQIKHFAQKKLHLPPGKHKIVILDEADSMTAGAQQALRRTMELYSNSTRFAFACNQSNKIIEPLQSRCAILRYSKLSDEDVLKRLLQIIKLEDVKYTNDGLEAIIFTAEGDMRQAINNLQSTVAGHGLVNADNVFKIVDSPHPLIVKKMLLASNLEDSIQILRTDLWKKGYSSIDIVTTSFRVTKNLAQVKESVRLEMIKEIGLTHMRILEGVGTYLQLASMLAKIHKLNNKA

| Substance | tested on | test | system | setting | how to read | quantity | value |
| --- | --- | --- | --- | --- | --- | --- | --- |
| B1 (Spt6 1-335) | SPN1 (Saccharomyces cerevisiae, UniProt Q06505) | NMR titration | – | – | – | binding | binds |
| ESPYQELQGQRSDVYSDLNT (TYROBP 88-107; phosphotyrosine) | SYK (Homo sapiens, UniProt P43405) | FIDA | peptide | – | – | binding | binds |
| B2 (TFC1 1-649) | TFC4 1-1025 (Saccharomyces cerevisiae, UniProt P33339) | cryo-EM | – | – | – | binding | binds |
| human pyruvate kinase PKM | PP6C (human) | co-immunoprecipitation, IP-MS | CYB5R4 knockout cells | concentration not given | reference: CYB5R4 knockout over parental | log2 fold change | 0.52 |
| B3 (INF2 941-1249) | INF2 fragment 20-24 replaced by GSGSG (Homo sapiens) | fluorescence polarisation | – | apparent | – | binding | binds |
| human TUBB4B | PP6C (human) | co-immunoprecipitation, IP-MS | CYB5R4 knockout cells | concentration not given | reference: CYB5R4 knockout over parental | log2 fold change | -0.59 |
| B4 (CCDC32 1-100) | Ap2m1 122-435 (Mus musculus, UniProt P84091) | pull-down | – | – | – | binding | binds |
| colistin | Escherichia coli | broth microdilution | clinical isolate RKI-No_97/15 | – | – | MIC | ≤ 0.5 mg/L |
| B5 (HDAC2 1-322) | KAT7 (Homo sapiens, UniProt O95251) | pull-down | – | – | – | binding | binds |
| B6 (HUS1) | LIG1 233-919 (Homo sapiens, UniProt P18858) | pull-down | – | 1 hr, 4 °C | – | binding | binds |
| TVAGQFEDADVDH (CLNS1A residues 225-237; N-terminal acetyl) | PRMT5/WDR77 fragment (Homo sapiens) | crystal structure | peptide | – | – | binding | binds |
| KKATQASQEY (H2AX residues 134-143 (Homo sapiens); pS139, fluorescein label) | MCPH1 BRCT 639-835 (Homo sapiens, UniProt Q8NEM0) | fluorescence polarisation | peptide | – | – | binding | binds |
| B7 (DDC1/MEC3/RAD17 1-612) | RAD24/RFC2/RFC3/RFC4/RFC5 (Saccharomyces cerevisiae) | cryo-EM | – | – | – | binding | binds |
| ARTKQTARKSTGGKAY (histone H3 residues 1-15; K9me3) | ATRX 1-321 (Homo sapiens, UniProt P46100) | ITC | peptide | 25 °C | – | binding | binds |
| BMI1 (Homo sapiens, UniProt P35226) | RNF2 (Homo sapiens, UniProt Q99496) | SEC | – | – | – | binding | binds |
| B8 (NOTCH1 1758-1888) | RBPJ 25-449 (Homo sapiens, UniProt Q06330) | ITC | – | – | – | binding | binds |
| B9 (dnaC 1-245) | dnaB 1-471 T86A (Escherichia coli, UniProt P0ACB0) | pull-down | – | – | – | binding | binds |
| B10 (POL30 1-258) | RFC4 (Saccharomyces cerevisiae, UniProt P40339) | cryo-EM | – | – | – | binding | binds |
| KESALRKQDLILLFDPLFR (TACC3 to 568 550-568 S558D/Y560I/K562L/L567F (Homo sapiens, UniProt Q9Y6A5); sequence looked up) | CLTC 358-574 (Homo sapiens, UniProt Q00610) | peptide array | peptide | – | – | binding | binds |
| B11 | Creb1 bZIP-BR 270-341 S270C/C300S/C337S (Rattus norvegicus, UniProt P15337-1) | smFRET | – | – | – | binding | binds |

For quick reference, copied from above:
| Substance | tested on | test | system | setting | how to read | quantity | value |
| --- | --- | --- | --- | --- | --- | --- | --- |
| B4 (CCDC32 1-100) | Ap2m1 122-435 (Mus musculus, UniProt P84091) | pull-down | – | – | – | binding | binds |
| colistin | Escherichia coli | broth microdilution | clinical isolate RKI-No_97/15 | – | – | MIC | ≤ 0.5 mg/L |
| B5 (HDAC2 1-322) | KAT7 (Homo sapiens, UniProt O95251) | pull-down | – | – | – | binding | binds |
